Published values collected from several papers.
Each numbered part is a random draw from the data of one study; scales do not carry over between parts. Substitutions count along the parent as printed.

Sample 1
Target: Hepatocyte nuclear factor 3-alpha (Foxa1, Mus musculus, UniProt P35582, residues 1-468, full length assumed)
Technique: EMSA with sequencing
Molecule type: double-stranded DNA, one strand shown
Matrix: in vitro
Concentration: 10 and 20 nM
Setting: whole designed probe, mean of two concentrations, ends assumed
Baseline: negative control set to 0
Direction: higher = stronger binding
Quantity: normalised bound fraction
Shared flanks, not repeated: GTGAGCGGTGCCCATTGATGGGGAAC … TTTCACTGGGATCGTGGGGAC
Target sequence (chain): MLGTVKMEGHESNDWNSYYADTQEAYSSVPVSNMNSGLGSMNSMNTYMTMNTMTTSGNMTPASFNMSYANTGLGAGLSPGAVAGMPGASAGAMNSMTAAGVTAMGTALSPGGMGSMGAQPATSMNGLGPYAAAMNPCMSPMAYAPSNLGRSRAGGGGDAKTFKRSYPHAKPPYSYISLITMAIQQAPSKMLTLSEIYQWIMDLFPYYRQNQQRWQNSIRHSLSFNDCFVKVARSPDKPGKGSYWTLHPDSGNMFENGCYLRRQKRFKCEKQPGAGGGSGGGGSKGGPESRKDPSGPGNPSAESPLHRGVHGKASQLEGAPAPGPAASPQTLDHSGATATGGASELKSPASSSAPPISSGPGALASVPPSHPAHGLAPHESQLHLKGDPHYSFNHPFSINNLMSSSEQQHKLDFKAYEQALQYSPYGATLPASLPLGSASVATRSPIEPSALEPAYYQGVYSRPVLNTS
TGATGATACGTTATAGCATTTCTCTGCTCTGTAAGAGAGGCACCAGGGTCGTGTGCTGGGTCTGGGGTTTGTCCACACATCCGGTTTCGCTGCTGTTGACTCTGGTGTCGGCCGCTGGTGAGCTGGCTGTAGCTGGTCACCTCTGGGTGGTTTCTGGGGCGGTCGCAGGCTGACTAACACACCAAAGGTCAGC: 0.00303 ratio
ATCTTCCCCCTCTTCCTTGCCCCACCAGCTCACCTTCCCGGGTTATTTGCAGATAGGAAAATAAATAAAGCCGGATGAATCATGCCCTCTTCACGCGCATACTGCCAGAGCAAACAGATCTAACATGGTCCTTTGGCGACGCCAGGCTCCGGGAGAGCAAAGCACCGTGTCAGGGCCATGATCCGGGGTGGCC: 0.4 ratio
CTGAATCCGCCTTCTGTCCCACACCCAACTCCTGCTCTGCCTCTGCAGCCACCTGCAGGCTCTCAGCGCACTCCTCAAAATCTATTTCTGCTGAGATTACCCAACACCACCTGCAGGAAACTCCCTTGAAATTCCCAGGCCTTTCCCAGAGTTCCTCAGTTCCTTTTCTTAAAATTCCTGCTGTCCCCAAAGA: -0.0805 ratio
TAAATTCCATATAAATTATACATACAAATACATATTATATATGATATAAATATTTGTTATAACATATTATATAAAATATAAATATATACAATGTAATCTTATATATTATTCTATACATGTAAATTATATAGAAAGAATAATATATAAAATGTATATATCTATGTCAGGCACAATTACGTGTGTTATTCAATTT: 0.409 ratio
ATGAAGGGCTGCCAGTGTAATTTGAACCTCAAATAAACAACAGATAAAACTGTAGTATAAGTATGTCCCATATTGCACAACATACGATCTTTTTGTTTGCCTAATCTGGCAAAGATATTGACTTAACACACACTAATCTGTTGACAGGTAGGTGAAATATTTGAACTTCTACGTTGCTTCTCTAATCCTGTCC: 0.393 ratio
AGGTGAATTGGCTGCTTCCATCCTGGCTTGGAACTTCAGACATAGAAGCCTTGGGACTTTCTCAGGCTGACTCATGCACTTTCTCCAGATTCAGCAAACAAGCATCTCTGTGGATCACGTGACCTTAGCCAGGGATGTTGGTGAAACTGTGTGTTGGTCTAGGTACCTAGCCCATGCTAGGTGCTCATCGAAT: 0.0534 ratio
GTGAGGTCCTGAGGCCCAGGGAAGGGCCCAGGGAGCTCCAGGGACAGTGGAGAGAGGCAGAGACGGGCAGTGCTGGAGATAGAACAGTAAGAGTAAACAGGGATGGATAAACAGGGGCTGAGGGGTAAAGTCCAGAAAGGCCCAGCCAAAACCAGCAACCAAGTGGCCTCCAGTTACCCGGTAAGCACTTAGA: 0.144 ratio
GTGTGTGCGCGCGCGTGTGTGTGTGTTTTCTTAAGCCGGGCTATTCAAACCCTGCTGCAATTCTCCGGTAAACAATGATTCATGGGGCATAATGCAATTTAACGGATTGCAAACGGCGCGGTTCGCGCACTTTGCAGCCGGCCCGGTGGAGCAGCCAGTGCCGGATTTCTCCCTTTTTTTGCAGATCTGCAGA: 0.135 ratio

Sample 2
Target: CCNA2, cyclin fold, Cln2 fusion (human)
Technique: yeast growth competition, sequencing
Matrix: yeast
Setting: strong parent motif
Baseline: not given
Direction: higher = stronger binding
Quantity: normalised enrichment score
Starting sequence: E2F1 docking peptide (human); PPVKRRLDFETDH
D12H: 6.25
T11R: 6.02
L7D: -0.0576
K4P: 4.12
R5F: 0.767
R5Q: 3.07
E10L: 6.19
D12F: 6.29
D8K: 5.93
P2H: 6.45
D12K: 6.29
R6S: 5.52
E10Y: 6.56
F9W: 5.07
P2M: 5.97
K4T: 4.71
V3M: 4.98
P2F: 6.1
K4Y: 5.19
L7V: 3.12
L7Q: 0.255
L7T: 0.248

Sample 3
Target: UBE2L3 UBC core domain (UniProt P68036)
Sequence of UniProt P68036 (whole entry, looked up): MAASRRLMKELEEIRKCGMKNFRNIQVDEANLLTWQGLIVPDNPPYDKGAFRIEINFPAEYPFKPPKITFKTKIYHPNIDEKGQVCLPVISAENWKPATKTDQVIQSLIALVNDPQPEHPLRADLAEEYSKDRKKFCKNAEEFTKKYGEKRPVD
Technique: yeast two-hybrid
Matrix: yeast
Setting: mostly zero background
Baseline: not given
Direction: higher = stronger interaction
Quantity: lacZ reporter activity
B1: TRIM5 RING domain (UniProt Q9C035); chain LREVKLSPEGQKVDHCARHGEKLLLFCQEDGKVICWLCERSQEHRGHHTFLTEEVAREYQVKL
B2: SH3RF2 RING domain (UniProt Q8TEC5); chain DDLTLLDLLECPVCFEKLDVTAKVLPCQHTFCKPCLQRVFKAHKELRCPECRTPVFSNIEAL
B3: TRIM24 RING domain (UniProt O15164); chain EAARLNLLDTCAVCHQNIQSRAPKLLPCLHSFCQRCLPAPQRYLMLPAPMLGSAETPPPVPAPGSPVSGSSPFATQVGVIRCPVCSQECAERHII
B4: RNF38 RING domain (UniProt Q9H0F5); chain PNNHQSEQTLCVVCMCDFESRQLLRVLPCNHEFHAKCVDKWLKANRTCPICRADASEVHRDS
B5: TRIML1 RING domain (UniProt Q8N9V2); chain LMENLREELTCFICLDYFSSPVTTECGHSFCLVCLLRSWEEHNTPLSCPECWRTLEGPHFQS
B6: TRIM5 RING domain (UniProt Q9C035); chain ILVNVKEEVTCPICLELLTQPLSLDCGHSFCQACLTANHKKSMLDKGESSCPVCRISYQPENIRP
B7: VPS41 RING domain (UniProt P49754); chain KGVLVDEENICESCLSPILPSDAAKPFSVVVFHCRHMFHKECLPMPSMNSAAQFCNICSAKNRGPGSAI
B8: MKRN1 RING domain (UniProt Q9UHC7); chain FAVQRSKDMVCGICMEVVYEKANPSERRFGILSNCNHTYCLKCIRKWRSAKQFESKIIKSCPECRITSNFVIPSE
B9: RNF208 RING domain (UniProt Q9H0X6); chain SSAAAGEPLECPTCGHSYNVTQRRPRVLSCLHSVCEQCLQILYESCPKYKFISCPTCRRETVLFTDYG
B10: TRIM43 RING domain (UniProt Q96BQ3); chain FSHAFQKELTCVICLNYLVDPVTICCGHSFCRPCLCLSWEEAQSPANCPACREPSPKMDFKT
B1 (TRIM5 RING domain): 0
DHGAVGQEMCCPICCSEYVKGEVATELPCHHYFHKPCVSIWLQKSGTCPVCRCMFPPPL (PJA1 RING domain (UniProt Q8NG27)): 0
B2 (SH3RF2 RING domain): 0
B3 (TRIM24 RING domain): 0
B4 (RNF38 RING domain): 0
B5 (TRIML1 RING domain): 0
VEPSEENSKDCVVCQNGTVNWVLLPCRHTCLCDGCVKYFQQCPMCRQFVQESFALC (CGRRF1 RING domain (UniProt Q99675)): 0
FQGDVDEDLICPICSGVLEEPVQAPHCEHAFCNACITQWFSQQQTCPVDRSVVTVAHLRP (RNF41 RING domain (UniProt Q9H4P4)): 0
B6 (TRIM5 RING domain): 0
B7 (VPS41 RING domain): 0
B8 (MKRN1 RING domain): 0
B9 (RNF208 RING domain): 0
B10 (TRIM43 RING domain): 0
ASLPTSEEDLCPICYAHPISAVFQPCGHKSCKACINQHLMNNKDCFFCKTTIVSVEDWE (RNF123 RING domain (UniProt Q5XPI4)): 0
GAAPGPEAAECLVCSELALLVLFSPCQHRTVCEECARRMKKCIRCQVVVSKKLRPD (MIB2 RING domain (UniProt Q96AX9)): 0

Sample 4
Target: RING finger protein unkempt homolog, zinc fingers 1-6, GST-SBP tag (UNK, Homo sapiens, UniProt Q9C0B0, residues 30-357)
Sequence of UniProt Q9C0B0 (30-357, looked up): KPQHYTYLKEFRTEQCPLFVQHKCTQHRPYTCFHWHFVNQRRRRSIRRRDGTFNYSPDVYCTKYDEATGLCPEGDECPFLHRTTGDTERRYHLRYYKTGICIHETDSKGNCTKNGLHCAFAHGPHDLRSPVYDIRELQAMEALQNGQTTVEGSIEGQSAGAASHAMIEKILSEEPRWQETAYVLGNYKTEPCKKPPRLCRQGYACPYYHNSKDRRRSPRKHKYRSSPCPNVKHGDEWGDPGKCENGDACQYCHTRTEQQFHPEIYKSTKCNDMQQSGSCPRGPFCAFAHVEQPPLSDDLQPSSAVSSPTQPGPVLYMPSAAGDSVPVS
Technique: RNA Bind-n-Seq
Molecule type: RNA
Matrix: in vitro
Concentration: not given
Setting: RNA with constant flanks, human and mouse sites, ends assumed
Baseline: input RNA pool
Direction: higher = stronger binding
Quantity: bound/input enrichment
Shared flanks, not repeated: GGGAGUUCUACAGUCCGACGAUC … CAACAGAGGAUUGAGCAUCA
UCUGGCCAUACUCGUGCAUAUGGUGUGUGCUUUGUUGAUACUUCACUGGGAAAGUUUUUCAUAGGUCAGUUUUCAGAUGAUCGCCAUUGUUCGAGAUUUAGGACUCUAGUGGCACACUAU: 0.62 ratio
ACACUGUAUGCCCACUUUGAGCAAGCCAACAUUAAAGCCCAGCUGCAGCAGCUUGGGGUGACCCUUUCUAUGACCAGGACAGAGCUGUCUCCCGCUCAGAUCAAGCAGCUCUUACAAAAC: 0.14 ratio
CAUUUAGCGUCUUUUGGGAAAGCCAAACAGUUCAUGAAUUUUCUGGUUGGACUUUUAAAAUUAGGUGAGUUGAUAAACUUCUUGAUUUUCCUACAAAAGGGAAAGUUUGCAACUUUGACA: 1.73 ratio
UACAAGGUCCAGGAAAAUAUAUAGACUACAGAUGUCCCAGGCUUUGAGUAAGCGCUGAUUUUAGGAGAUGGGUAAUUAACCCAAGUUCUCCAACAUUUUUCACAUAAGAAAUGUGUUUUG: 0.188 ratio
AUCUUUGGAUGGGGACGCAACAAGUUUGGUCAGCUAGGUCUUAAUGAUGAAAAUGAUAGGUAUGUUCCUAAUUUACUAAAGUCACUAAGAUCUCAGAAAAUAGUUUAUAUUUGUUGUGGA: 0.397 ratio
GGGAACAACAAUCAAAGUAAACCAGGCUUCCUGAGGAAGAAUCAUUAUACAAACACCAAACUAGAGGUGAAAAAAAUCCCCCAGGAAUUGAACAACAUUACCAAGCUCAACGAACACUUC: 0.601 ratio
GGAACAGAUUUGAAACUCUCCUACUUGAGUUCCAGAGCUGCAGGGUAUAAGUCAGUUCUCAAGAUCACCAUGACCCAGUCUAUUAUUCCAUUUAAUUUAAUGAAGGUUCAUCUUAUGGUA: 0.455 ratio
UGGGAGAACUUGUUGAAAAGCGCUGCACAUUGCUCCAAAAGGAAAAGAAAAAACAGGAAAGAAAAUGAUUCCAAGGAAAAAUAUGCAAGCCUGUUUCAUUUAUUUGUACCCUAAGCAGCA: 0.172 ratio
UUUUAUGGCAUGUAAUGGUGUUUGGUAAUAUUUUAAUGUAGAAUUUGAUUAUUUCAGCAAUAGUAAUUUUGAGAUAUUCUUUGAAUGAAAAGUGUCUUCGUUUCUAUGAUACAGGUCAUU: 4.08 ratio
AGACUCCGCUUCCGUUUUCCUGAGCUCCUCGGGCCCCAGAGUCUCUGUUUGAUUAUUUAUUUAUUUAUUUAUUUAUUUGCCAAAAAUUCUCCUCUUCAACUUAUAGAAUGCACCUAAUAA: 27 ratio
UUUUUUUUUCCCCAAAGUGUAGUUAUGUUUUCACUAUUGCUGCUUCUAUAGAGGGCAUUGUGAUAGAGAGUUACAGAUGAAACAUUAAAUGCCACAGUGAGUAGAAAUAAUUACUACAAA: 0.415 ratio

Other studies, line by line
B11: IAA8 (Arabidopsis thaliana, UniProt Q38826); chain MSYRLLSVDKDELVTSPCLKERNYLGLSDCSSVDSSTIPNVVGKSNLNFKATELRLGLPESQSPERETDFGLLSPRTPDEKLLFPLLPSKDNGSATTGHKNVVSGNKRGFADTWDEFSGVKGSVRPGGGINMMLSPKVKDVSKSIQEERSHAKGGLNNAPAAKAQVVGWPPIRSYRKNTMASSTSKNTDEVDGKPGLGVLFVKVSMDGAPYLRKVDLRTYTSYQQLSSALEKMFSCFTLGQCGLHGAQGRERMSEIKLKDLLHGSEFVLTYEDKDGDWMLVGDVPWEIFTETCQKLKIMKGSDSIGLAPGAVEKSKNKERV
B11 (IAA8)  positive tests (IAA9 (Arabidopsis thaliana, UniProt Q38827); two-hybrid; baseline: out of 2 tests, higher = firmer interaction): 2

Repeated from above (sample 2):
F9W: 5.07
P2M: 5.97
K4T: 4.71
V3M: 4.98
